# Published values pooled from the literature.
# Each numbered part is a random draw from the data of one study; scales do not carry over between parts.

# Sample 1
# Target: PABPC1L2, full length, GST fusion (mouse, UniProt A0ABA7IW68)
# Technique: RNAcompete
# Molecule type: RNA
# Sample: in vitro
# Tested at: 20 nM
# Notes: 7-mer, probes averaged, single round
# Relative to: mean of 7-mers
# Reading: higher = stronger binding
# Construct (chain): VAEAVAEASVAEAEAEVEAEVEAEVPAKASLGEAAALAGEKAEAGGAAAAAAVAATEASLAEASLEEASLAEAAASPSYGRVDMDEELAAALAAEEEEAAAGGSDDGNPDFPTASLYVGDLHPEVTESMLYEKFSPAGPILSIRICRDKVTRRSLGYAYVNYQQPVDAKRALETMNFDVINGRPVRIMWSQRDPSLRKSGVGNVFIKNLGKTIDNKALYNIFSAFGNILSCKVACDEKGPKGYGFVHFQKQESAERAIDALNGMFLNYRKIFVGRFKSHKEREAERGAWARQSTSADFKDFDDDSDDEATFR
Oligonucleotide,7-mer Z-score
UAGGCGA,0.213
UGUCGGC,-0.133
UUCUGGA,-0.264
CGAGCAG,0.0261
CACACGU,-0.32
CACAGCU,-0.219
UCGUAUA,-0.191
GUGAUUG,-0.0863
UUGGUUU,-0.36
CUCGUCU,-0.521
GGCUCUG,-0.00108
UUGGCAG,0.0225
ACAUAUU,0.0261
AACCUAG,-0.0736
GACUGUU,-0.306
GGGGACU,0.336
CUCAUAC,-0.278
UUGAAGG,-0.132
UACGGAC,0.0424
CAAGAUU,0.124
AGGGCGA,0.481
UGAUUUU,-0.182
UUGUAUA,-0.148
ACUAGGC,-0.00108
CUGCCGC,-0.327

# Sample 2
# Target: Prothrombin, mature alpha-thrombin (F2, Homo sapiens, UniProt P00734)
# Technique: aptamer microarray, sandwich
# Molecule type: DNA with 2'F-ANA
# Sample: in vitro
# Tested at: 200 nM
# Notes: whole 15-mer aptamer, many near background
# Together with: Cy3 exosite-II aptamer, 400 nM
# Reading: higher = stronger binding
# Oligonucleotide: GGTTGGTGTGGTTGG
Modification,mean fluorescence intensity [a.u.]
2'F-ANA at 1 5 6 7 14,46.5
2'F-ANA at 1 2 3 5 6 7 9 12 13 15,75.1
2'F-ANA at 1 8 9 10 11 12 14,48.4
2'F-ANA at 1 3 5 6 7 10 11 12 14 15,75.5
2'F-ANA at 1 3 6 8 10 12 15,105
2'F-ANA at 1 3 4 8 9 10 13 14,50.1
2'F-ANA at 1 4 5 9 10 11 13 14,47
2'F-ANA at 1 4 5 6 7 8 9 10 13,50
2'F-ANA at 3 6 8 9 10 15,506
2'F-ANA at 1 2 3 5 7 10 11 14 15,47.3
2'F-ANA at 1 2 3 5 6 12,108
2'F-ANA at 2 3 4 5 8 10 12 13 14,49
2'F-ANA at 1 5 6 8 11 12 13,76.3
2'F-ANA at 1 2 4 5 7 9 11 13 15,50.6
2'F-ANA at 1 9 14 15,55.5
2'F-ANA at 5 6 9 12 14,48
2'F-ANA at 2 4 5 6 7 8 11 12 14,53.6
2'F-ANA at 1 4 5 9 11 14,42.5
2'F-ANA at 2 3 4 6 7 9 11 12 15,586
2'F-ANA at 2 3 4 7 9 13 14,264
2'F-ANA at 3 6 7 11 14 15,485
2'F-ANA at 1 2 3 6 7 9 10 12 13,72
2'F-ANA at 1 2 3 6 8 9 12 14,85.6

# Sample 3
# Target: Centromere-binding protein 1, full length, His-tagged (CBF1, Saccharomyces cerevisiae, UniProt P17106, residues 1-351)
# UniProt P17106, sequence (whole entry, looked up): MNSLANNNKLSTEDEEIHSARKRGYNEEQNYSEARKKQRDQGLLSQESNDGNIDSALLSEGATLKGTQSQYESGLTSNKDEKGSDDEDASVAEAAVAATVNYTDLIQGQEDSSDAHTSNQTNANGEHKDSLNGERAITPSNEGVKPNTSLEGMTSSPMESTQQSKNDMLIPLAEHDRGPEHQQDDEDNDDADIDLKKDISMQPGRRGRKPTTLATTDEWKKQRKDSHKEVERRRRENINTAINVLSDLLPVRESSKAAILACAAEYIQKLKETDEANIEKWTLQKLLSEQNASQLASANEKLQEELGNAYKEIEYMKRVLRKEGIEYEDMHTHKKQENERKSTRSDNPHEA
# Technique: competition protein-binding microarray
# Molecule type: double-stranded DNA, one strand shown
# Sample: in vitro
# Tested at: 2 µM
# Notes: whole 60-bp probe, lowest competitor level
# Together with: Pho4 competitor, 0.05 µM
# Reading: higher = stronger binding
Oligonucleotide,fluorescence intensity [a.u.]
CACCGTCTTCCGCCGCACGTGGATTCAGCGCGATGCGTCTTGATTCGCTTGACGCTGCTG,611
CATACCCAACCTTGGGATGTGGGTGAAGATATTTGTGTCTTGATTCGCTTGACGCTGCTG,67.3
AACTATCTGAAAATTCACGTGATGGTCATTTGAGTAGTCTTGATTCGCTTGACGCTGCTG,3390
GTCTTGTCTCATTGGTACGTGGGTGTCCCCACTTCAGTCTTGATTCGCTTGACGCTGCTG,77.1
CAAGAAATCTTGTTCCTCGTGGCCGAATGGTTACGGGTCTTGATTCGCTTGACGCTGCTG,93.6
GAGCAGTTCTGTAACCAGATCTCTTGTGTTGCTTGGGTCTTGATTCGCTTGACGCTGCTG,71.5
TTCAACTCACATTTGCACGATGCAAGCCAATGGAAAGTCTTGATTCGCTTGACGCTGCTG,80.7
TTTGGCGCCAATGAACTCGTGGTCGGGACCTCCACCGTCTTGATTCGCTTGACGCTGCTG,97.4
TTGACCGATTTTCTGATCATGCAAAACTTTAGAGCTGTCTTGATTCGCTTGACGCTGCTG,107
TAGTCGGAGTAGGCACACAATTCAGGGTTGTTGATCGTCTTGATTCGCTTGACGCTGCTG,92.4
GCCTACCGGTCCTCGCACGCGGTCTCGCTTTTCTCAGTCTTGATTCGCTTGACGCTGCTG,54.7
ATTCAATGTCGTTATGACCTGCTCGGGATGTTCTGGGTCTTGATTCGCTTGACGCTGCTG,70
TTGGTACGAAGAAAGCACGTGGATTCAGCAATTCAAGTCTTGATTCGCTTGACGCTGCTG,1400
CGGGGTTAAGTTTTTCACGTGAAATGCTTGCAGCAGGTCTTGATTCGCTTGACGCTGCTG,672
TGTCATATTCATTTGCACGTTCTTTTTTTAATTTATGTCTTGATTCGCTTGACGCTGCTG,210
TGCGAAATTTGAGTACACGTGAGTCAGTCAGTCGGCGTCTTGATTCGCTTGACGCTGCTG,2170
CTTTCCCGATCTTGTCACGGAACTTTAGCACATTTGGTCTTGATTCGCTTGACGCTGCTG,96.3

# Sample 4
# Target: RNA binding protein fox-1 homolog 2, RRM domain, GST-SBP tag (RBFOX2, Homo sapiens, UniProt O43251-10, residues 100-194)
# Technique: RNA Bind-n-Seq
# Molecule type: RNA
# Sample: in vitro
# Tested at: 365 nM
# Notes: natural RNA segment, single round, ends assumed
# Relative to: no-protein control
# Reading: higher = stronger binding
# Construct (chain): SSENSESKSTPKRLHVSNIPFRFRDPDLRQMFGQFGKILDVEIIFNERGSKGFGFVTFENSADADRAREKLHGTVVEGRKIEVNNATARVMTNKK
Oligonucleotide,RBNS enrichment (R)
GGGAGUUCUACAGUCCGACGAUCAAAGGAAAAUACCAGAAUAUCUGGAAAGCUUGAAGUGUAAGAUGGGAUCUCGUUGGGGAAUUGGAUGAAGAAAAGCAGAGCGCCUCUGGUAGGUGACUCUGCAGCCUGCCUGGAAUUCUCGGGUGCCAA,1.71
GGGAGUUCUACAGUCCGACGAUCUCAGGUCUAGGAUGAUUAGGGUGUGGUAUUAUUUGGUUUGCAACAUCCCAAGGCAAUACUUCCAGACUAAGGUGGCCAUCCAGCAUUCCUUUGAGUCCUCCAAGAAAGAUUGGAAUUCUCGGGUGCCAA,0.206
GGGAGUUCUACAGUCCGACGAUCGUUGUAUCACUGUUAAACUUCUGAAGACAUAACCAGUUGAGUCUUAUUUCAAGAUAUGUUCUCAAGCCAAUUGUGUGCUUCUCUUGUUUCUGUGAUUGCUUUCUAGCCAAUGGAAUUCUCGGGUGCCAA,0.218
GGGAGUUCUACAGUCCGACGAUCUUUUGUUGUUGCGUAGUCUUUGUUUUAUACUUCUACAAUACCCGUAUAGCCUUCCACAUAGAUCUGCAUCAUGUAAGCUCAGGUUACUAUGAUUCCCUUCAGUUUCCUUCUGGAAUUCUCGGGUGCCAA,0.321
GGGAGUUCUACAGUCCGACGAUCUCUGUCUUGUUUUUCACUUAUAUAACACUGUGAACUUCUAAAGCAAGAGGAUAAAAGAAGCAUGAAUGAAAAGAAUGACAUUUCAAAAAAAUGGUUCAAUGAAAAACUAUUGGAAUUCUCGGGUGCCAA,7.56
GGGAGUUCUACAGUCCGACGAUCCUCUAGUGUUCAGUUGUUGAUGUGCCCCUGCCCACUGCCUGCUCGAGGAAUACCUCUGUUCUACCCAGAAGGAGGGAGGGACAGCUUAGUAGCCCUAGGAAGGAGCUGAGUGGAAUUCUCGGGUGCCAA,0.632
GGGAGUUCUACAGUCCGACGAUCACAUAUGUAAUAUACCCUUAUAUUAUGUAUGAGGGAUUUAAAAUAUUGAAAUGGUUUCCUAGUGGUAGUAGGAAGACUGAAUAAGAACAACCUAUUUUCUGGUUGUUGUCUGGAAUUCUCGGGUGCCAA,0.263
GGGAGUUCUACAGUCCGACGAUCUGUAUUGUUAUUGGCUGUAAACGUCUGUCUGGACCGAAUAAAGAUUCAUUCACGUGGCCUCUGCUCCUGUGUGGUCUGAGCAGGCUUCAUCUCUGUUUCUCUCAAGGCGUUGGAAUUCUCGGGUGCCAA,0.756

# Excerpt of the above (sample 4):
Oligonucleotide,RBNS enrichment (R)
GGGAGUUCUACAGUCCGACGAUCAAAGGAAAAUACCAGAAUAUCUGGAAAGCUUGAAGUGUAAGAUGGGAUCUCGUUGGGGAAUUGGAUGAAGAAAAGCAGAGCGCCUCUGGUAGGUGACUCUGCAGCCUGCCUGGAAUUCUCGGGUGCCAA,1.71
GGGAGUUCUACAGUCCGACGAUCUCAGGUCUAGGAUGAUUAGGGUGUGGUAUUAUUUGGUUUGCAACAUCCCAAGGCAAUACUUCCAGACUAAGGUGGCCAUCCAGCAUUCCUUUGAGUCCUCCAAGAAAGAUUGGAAUUCUCGGGUGCCAA,0.206
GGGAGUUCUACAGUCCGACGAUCGUUGUAUCACUGUUAAACUUCUGAAGACAUAACCAGUUGAGUCUUAUUUCAAGAUAUGUUCUCAAGCCAAUUGUGUGCUUCUCUUGUUUCUGUGAUUGCUUUCUAGCCAAUGGAAUUCUCGGGUGCCAA,0.218
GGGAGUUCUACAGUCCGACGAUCUUUUGUUGUUGCGUAGUCUUUGUUUUAUACUUCUACAAUACCCGUAUAGCCUUCCACAUAGAUCUGCAUCAUGUAAGCUCAGGUUACUAUGAUUCCCUUCAGUUUCCUUCUGGAAUUCUCGGGUGCCAA,0.321
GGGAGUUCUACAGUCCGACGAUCUCUGUCUUGUUUUUCACUUAUAUAACACUGUGAACUUCUAAAGCAAGAGGAUAAAAGAAGCAUGAAUGAAAAGAAUGACAUUUCAAAAAAAUGGUUCAAUGAAAAACUAUUGGAAUUCUCGGGUGCCAA,7.56
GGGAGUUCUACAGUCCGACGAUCCUCUAGUGUUCAGUUGUUGAUGUGCCCCUGCCCACUGCCUGCUCGAGGAAUACCUCUGUUCUACCCAGAAGGAGGGAGGGACAGCUUAGUAGCCCUAGGAAGGAGCUGAGUGGAAUUCUCGGGUGCCAA,0.632
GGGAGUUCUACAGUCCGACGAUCACAUAUGUAAUAUACCCUUAUAUUAUGUAUGAGGGAUUUAAAAUAUUGAAAUGGUUUCCUAGUGGUAGUAGGAAGACUGAAUAAGAACAACCUAUUUUCUGGUUGUUGUCUGGAAUUCUCGGGUGCCAA,0.263
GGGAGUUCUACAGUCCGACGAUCUGUAUUGUUAUUGGCUGUAAACGUCUGUCUGGACCGAAUAAAGAUUCAUUCACGUGGCCUCUGCUCCUGUGUGGUCUGAGCAGGCUUCAUCUCUGUUUCUCUCAAGGCGUUGGAAUUCUCGGGUGCCAA,0.756
